Measured values pooled from the literature.
Every numbered part comes from another study and shows a few of its results, in no order.

Sample 1
Target: RING finger protein unkempt homolog, zinc fingers 1-6, GST-SBP tag (UNK, Homo sapiens, UniProt Q9C0B0, residues 30-357)
Technique: RNA Bind-n-Seq
Molecule type: RNA
Matrix: in vitro
Concentration: not given
Setting: RNA with constant flanks, human and mouse sites, ends assumed
Reference: input RNA pool
Direction: higher = stronger binding
All sequences stand within: GGGAGUUCUACAGUCCGACGAUC … CAACAGAGGAUUGAGCAUCA
Construct (chain): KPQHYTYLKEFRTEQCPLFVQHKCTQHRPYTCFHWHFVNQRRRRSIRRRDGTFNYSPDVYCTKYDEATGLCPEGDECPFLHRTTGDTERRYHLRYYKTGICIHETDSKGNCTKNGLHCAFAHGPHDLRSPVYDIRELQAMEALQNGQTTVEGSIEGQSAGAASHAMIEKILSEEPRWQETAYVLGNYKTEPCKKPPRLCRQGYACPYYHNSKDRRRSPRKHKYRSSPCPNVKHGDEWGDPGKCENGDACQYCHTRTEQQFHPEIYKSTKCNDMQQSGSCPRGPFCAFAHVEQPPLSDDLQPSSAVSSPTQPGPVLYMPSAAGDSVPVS
| Strand | bound/input enrichment |
| --- | --- |
| CGGACUCCCGCGGCGGGAGGAGCCUGUUCCCCUGAGGGUAUUUGAAGUAUACCAUACAACUGUUUUGAAAAUCCAGCGUGGACAAUGGCUACUCAAGCUGAUUUGAUGGAGUUGGACAUG | 0.131 ratio |
| UUUGGAGGUCAAGACAUCUUUAUGACAGAGGAACAGAAAAAAUAUUACAAUGCAAUGAAGAAACUUGGAUCCAAGAAACCUCAGAAACCCAUACCUCGCCCAGCAAACAAAUUCCAAGGA | 0.309 ratio |
| CCUCUUGAUAACUGCCGAGGGUUACAUCCACUAGACUCACUGAGCCCACUUUGCUUUAUUAUACAGGCAUGUGGAAAUAUCCAUGAAUGUGAAUAUUGCCUGAGUUCAGUCUUAGUAUCU | 0.15 ratio |
| CAUUCUCUGCAUUUUAAUGAGAAUAUUGCAGCAGUCAUGAAGAAGGGCUUUAAUCUAGAAGAACUAGAAAAGAAUAAUGCACACAGCAUACAAGUCCUCAAGGGCCCUCAUUUAACUAAU | 0.604 ratio |
| GCCAUUCAGGAACGAGUGGCUCAUGGCCAAACUGGAAACUUCUUGUUCUUUGGCUGCCGCCAGCGGGAUCAGGACUUCUACUGGCAGACUGAAUGGCAGAAGCUAGAGCAGAAGGGCUGG | 0.0911 ratio |
| CGAUUCUACAUAGCAGAACUUACCUGUGCAGUUGAAAGUGUUCAUAAAAUGGGUUUUAUUCAUAGAGAUAUUAAACCUGAUAACAUUUUGAUUGACCGUGAUGGCCAUAUUAAAUUGACU | 0.514 ratio |
| UGCCAAGUCCAUCUUUGCCCAGUCAAUUCAGUGAUUGAUAGCAAUUUACAUUAAUUGCAGUAAAGCUCUUUGGAUUAGAAAUUAGUGUGGGGAAAGCUUAUUCUGUUGUUGUUUUUGUUU | 1.37 ratio |
| CCCCACUUCCAGUGUUUUUGCAUUGCAUUUUACCGAGCCGCCCAUCUCUGCUCAGCUUUUGGCUUUUCUCCGAGUAUUCUGUAUGACUGAAGAAGAACUGAAAGAACACUUGCUGGGAGA | 0.112 ratio |
| GAUUAUUUGUAAAACACACAAGAAACCAUCUCUGAUCUGCCUGUGCUAACCCAGCUGAACAAUGGAAGAUAUUUGUUGUAAAUUAAAGGAAUUGAUUUGUAUAUAGUUGCUGCCAUAAAU | 0.238 ratio |
| GAACCUGCUGAUGCAUCAGUAGUCCUGUGUAAAGAGCCCACCGCCUUUGAGGUUCCUCAGCUUAGUGUUUGUGGAGGUUCUGAAGACGCUGACAUAUUAUCCAGUUCAGGUCAUGACACA | 0.234 ratio |
| AGGCUCGAGGGCGGUGAGCAGUGACAAUUGCUAGGCGGAGACAGUGCAGGGAAGAGAGACCUUAGAAAGGAUCAGGACUGGCGGGAGGUAUUUAACUGAAAGGAAUAUCUGCUUCACUGU | 0.318 ratio |

Sample 2
Target: Histone acetyltransferase KAT6A, winged helix 2, GST fusion (KAT6A, Homo sapiens, UniProt Q92794, residues 85-181)
Technique: protein binding microarray
Molecule type: double-stranded DNA, one strand shown
Matrix: in vitro
Concentration: not given
Setting: 8-mer, flanks averaged, mean of 2 arrays, mostly near background
Reference: not given
Direction: higher = stronger binding
Construct (chain): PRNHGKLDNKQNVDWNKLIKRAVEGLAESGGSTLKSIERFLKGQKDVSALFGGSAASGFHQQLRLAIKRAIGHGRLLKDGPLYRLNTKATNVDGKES
| Strand | E-score |
| --- | --- |
| TCTCACAA | -0.00724 |
| GTTACTAA | 0.0816 |
| TCCGCCCA | 0.107 |
| AGGTCAGA | -0.104 |
| GGATAGCC | 0.0435 |
| AAGAATCG | 0.0388 |
| CTCCTGTA | -0.0886 |
| GAAAGTAA | -0.0593 |
| AACAGCTC | 0.0557 |
| AGTAATCG | 0.0414 |
| CCGCCAGC | 0.138 |
| CAAAGTTC | -0.0465 |
| GAGCCAAC | 0.00259 |
| AGTTGGCA | 0.0128 |
| GAGATGTA | -0.157 |
| TAACAAGA | -0.0212 |
| CACACAAG | 0.0358 |
| AACAGGAA | 0.0373 |
| GGGCTCAC | 0.0201 |
| CCGCCGTA | 0.0778 |
| GGGTTGTA | -0.112 |
| CTAAAGGC | 0.0711 |
| AGGTCAAT | -0.066 |
| CTTTCCGC | 0.136 |
| CGCCTGAG | 0.119 |

Sample 3
Target: PABPC1L2, full length, GST fusion (mouse, UniProt A0ABA7IW68)
Technique: RNAcompete
Molecule type: RNA
Matrix: in vitro
Concentration: 20 nM
Setting: 7-mer, probes averaged, single round
Reference: mean of 7-mers
Direction: higher = stronger binding
Construct (chain): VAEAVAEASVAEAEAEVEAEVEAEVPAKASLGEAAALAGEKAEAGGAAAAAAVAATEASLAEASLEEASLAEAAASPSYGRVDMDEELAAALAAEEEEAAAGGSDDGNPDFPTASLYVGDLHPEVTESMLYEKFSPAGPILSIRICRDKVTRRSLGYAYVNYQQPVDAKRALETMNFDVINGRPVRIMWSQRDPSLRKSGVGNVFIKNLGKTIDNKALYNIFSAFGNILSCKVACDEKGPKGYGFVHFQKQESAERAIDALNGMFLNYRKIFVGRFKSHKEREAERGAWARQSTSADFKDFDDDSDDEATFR
| Strand | 7-mer Z-score |
| --- | --- |
| UUCAAGC | -0.135 |
| ACCGUCC | -0.36 |
| UAUGAGG | 0.0189 |
| GUGAGAA | -0.0699 |
| CUAGGUC | -0.104 |
| GAAAAGU | 3.13 |
| GCGGGGA | 0.412 |
| CGAAUCA | 0.109 |
| CUCCUUG | -0.434 |
| AUUACGC | -0.204 |
| UGUGUCA | -0.374 |
| AAUGCCG | 0.129 |
| CUUUUUA | 0.327 |
| CCAAAUU | -0.101 |
| CGCAUUU | -0.34 |
| GUCGAUG | -0.177 |
| UAAGCAU | -0.0373 |
| GCCCCUU | -0.396 |
| CUUCACU | -0.344 |
| CUAUGGC | -0.19 |
| GCCUCGC | -0.394 |
| AAGAUAU | 0.213 |
| AGAUGCA | -0.277 |
| UUCGCUG | -0.492 |
| GCACUCG | -0.175 |

Sample 4
Target: RNA binding protein fox-1 homolog 2, RRM domain, GST-SBP tag (RBFOX2, Homo sapiens, UniProt O43251-10, residues 100-194)
Technique: RNA Bind-n-Seq
Molecule type: RNA
Matrix: in vitro
Concentration: 365 nM
Setting: natural RNA segment, single round, ends assumed
Reference: no-protein control
Direction: higher = stronger binding
All sequences stand within: GGGAGUUCUACAGUCCGACGAUC … UGGAAUUCUCGGGUGCCAA
Target sequence (chain): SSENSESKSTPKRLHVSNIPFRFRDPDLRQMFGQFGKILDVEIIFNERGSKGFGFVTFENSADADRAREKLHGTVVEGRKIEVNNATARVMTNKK
| Strand | RBNS enrichment (R) |
| --- | --- |
| AAACGAAAACCACUUUCCAGUAAUAUAUGGCAUUGCUGUCAACAUUAAGACUGCAGAGAUUUACAGAGCAUCCUUUCAAGAUCGGGGUCCGGAGGAGCAGCUUCGUGCUG | 0.397 |
| AUAAAGAAUGUAAGGGCUAUAAGUAGAAACUUUCUAUAACCUAAAUGAUGUUAUAGAAUUAUUUUUGAGCAGGAGCAGAAAGAUUAAAUAUGAUCACUUCAUACUUCUAA | 0.768 |
| AGUUCUUCAGUAUAGAAAGUGGAAGUGGUUUAAAUGGCAUAGUACAUAUACAUAUAUAUAUGGCCUUGUAAAACAGAUUUGAGACCUUGUGAAGAAAUGGAUAUGUUAUA | 0.386 |
| UGUCCAGUGCUGGGUGUUUGGGUGCUUCUGUACCAGCCGUCCCCAAGCAGGGCUAAGGCACCUUGAACUAGCCAGAUGCAAACAUAGAUUCACUGUGCUUUCCUUUCAAA | 0.311 |
| GCAGGUGCCGAGUGUCAGAUAGCAUCGGUCCAGAGCUCGUCAGAGGCCCCUGACAGUGGAAACAGAAGAUGCUAAGCUGUCAUAGGUGGAGCAGGAUCCUAAGGACGCAC | 0.308 |
| AGCUAGAAGAGCUUCCCCCUGACACCCUGUGACUGAGCCUGUGUCCUGUCUGCCUGCCCAGCCAUGCUCCAUCGGCUGUGAGGGCAGUGCCCGGAGAGGCCAGAGGGUUG | 0.505 |
| UGGGCCAAUUAUUCAAUUUUCAAGAAUUUUGUUGCAAGCCAGUUGUCAAACACAGCCAUUAUAAUUAUGUAAAUUUGCAAAUUAUGUUAAAAACAAGGACAAUAAAUAUU | 0.619 |
| UUUGUCAACAUGAUGGUAAAAAGGAAAGAAAUCUGUUACAAAGACAAAUUAGAGGGAAAUUUGUCCUGUUAACCACAUGCUAUUAUUCCUUCAUUCAGGGUUACUGACCU | 0.6 |
| UUUGUGGUUUCCUCUAUUUUGAAUUUUUUGAUCAAAAAACUGAUUAGCAGAAUAUAGUUUGGAGUUUGGCUUCAUCUUCCUGGGGUUCCCCUCACUCCCUUUUUUGUCAA | 0.998 |
| CUACAAGCCACCUCAGUUAACUUUGGUUCCCCGUGGACUCCCAGGCUGGAGGAGGAAAGCGUGAGGACGGGGAUGAUUUUGAUCACGAUUCCAUUUAUUGCCUUUACAUA | 1.39 |
| AAUAUCCAAAUUAUAAAUACUAAGGAAACUUUGUUUCCAGUUUGGCAAUGAUCCAGUCUAAAGUAGAACCUCAAUUUAAAAGAUUGAGGUUCAGAGCAUCAACACUCCAU | 0.294 |
| AAAAGUUUGCUUCUUUUUAUUGAUGGUUCCAAAGAAACAAACCAAAUCUACCAGCUCUUGGAUGAAGAUAGAACAGUGCUUUUCCAGAGUGGGAAGGAAGGGGUUGAGAC | 0.919 |

Excerpt of the above (sample 4):
| Strand | RBNS enrichment (R) |
| --- | --- |
| UUUGUCAACAUGAUGGUAAAAAGGAAAGAAAUCUGUUACAAAGACAAAUUAGAGGGAAAUUUGUCCUGUUAACCACAUGCUAUUAUUCCUUCAUUCAGGGUUACUGACCU | 0.6 |
| CUACAAGCCACCUCAGUUAACUUUGGUUCCCCGUGGACUCCCAGGCUGGAGGAGGAAAGCGUGAGGACGGGGAUGAUUUUGAUCACGAUUCCAUUUAUUGCCUUUACAUA | 1.39 |
| GCAGGUGCCGAGUGUCAGAUAGCAUCGGUCCAGAGCUCGUCAGAGGCCCCUGACAGUGGAAACAGAAGAUGCUAAGCUGUCAUAGGUGGAGCAGGAUCCUAAGGACGCAC | 0.308 |
| UGGGCCAAUUAUUCAAUUUUCAAGAAUUUUGUUGCAAGCCAGUUGUCAAACACAGCCAUUAUAAUUAUGUAAAUUUGCAAAUUAUGUUAAAAACAAGGACAAUAAAUAUU | 0.619 |
| AUAAAGAAUGUAAGGGCUAUAAGUAGAAACUUUCUAUAACCUAAAUGAUGUUAUAGAAUUAUUUUUGAGCAGGAGCAGAAAGAUUAAAUAUGAUCACUUCAUACUUCUAA | 0.768 |
| AGUUCUUCAGUAUAGAAAGUGGAAGUGGUUUAAAUGGCAUAGUACAUAUACAUAUAUAUAUGGCCUUGUAAAACAGAUUUGAGACCUUGUGAAGAAAUGGAUAUGUUAUA | 0.386 |
| UGUCCAGUGCUGGGUGUUUGGGUGCUUCUGUACCAGCCGUCCCCAAGCAGGGCUAAGGCACCUUGAACUAGCCAGAUGCAAACAUAGAUUCACUGUGCUUUCCUUUCAAA | 0.311 |
| AAACGAAAACCACUUUCCAGUAAUAUAUGGCAUUGCUGUCAACAUUAAGACUGCAGAGAUUUACAGAGCAUCCUUUCAAGAUCGGGGUCCGGAGGAGCAGCUUCGUGCUG | 0.397 |
| AAAAGUUUGCUUCUUUUUAUUGAUGGUUCCAAAGAAACAAACCAAAUCUACCAGCUCUUGGAUGAAGAUAGAACAGUGCUUUUCCAGAGUGGGAAGGAAGGGGUUGAGAC | 0.919 |
| AAUAUCCAAAUUAUAAAUACUAAGGAAACUUUGUUUCCAGUUUGGCAAUGAUCCAGUCUAAAGUAGAACCUCAAUUUAAAAGAUUGAGGUUCAGAGCAUCAACACUCCAU | 0.294 |
